Experimental data gathered from unrelated publications.
Parts stem from different laboratories: compare values within a part only.

Sample 1 — technique: RNAcompete; form: RNA; matrix: in vitro; concentration: 20 nM; notes: 7-mer, probes averaged, single round; reference: mean of 7-mers; direction: higher = stronger binding
Target: PABPC1L2, full length, GST fusion (mouse, UniProt A0ABA7IW68)
Target sequence (chain): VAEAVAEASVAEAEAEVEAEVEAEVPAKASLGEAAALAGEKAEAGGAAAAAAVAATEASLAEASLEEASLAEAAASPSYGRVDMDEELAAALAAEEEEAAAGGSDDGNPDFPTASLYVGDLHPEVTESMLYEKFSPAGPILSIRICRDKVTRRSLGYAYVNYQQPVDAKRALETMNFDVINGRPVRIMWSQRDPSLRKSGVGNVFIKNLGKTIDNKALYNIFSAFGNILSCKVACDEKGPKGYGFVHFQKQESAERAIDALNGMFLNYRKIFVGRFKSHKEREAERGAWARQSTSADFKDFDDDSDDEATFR
Strand | 7-mer Z-score
UGGCGGA | 0.292
UCGGCUU | -0.246
GCAACUA | 0.119
UGAUAUC | -0.161

Sample 2 — technique: protein-binding microarray; form: double-stranded DNA, one strand shown; matrix: in vitro; concentration: not given; direction: higher = stronger binding
Target: TATA-box-binding protein 1 (TBP1, Arabidopsis thaliana, UniProt P28147, residues 1-200, full length assumed)
Notes: k-mer, scored over probes, only values ≥0.25
Residues (chain): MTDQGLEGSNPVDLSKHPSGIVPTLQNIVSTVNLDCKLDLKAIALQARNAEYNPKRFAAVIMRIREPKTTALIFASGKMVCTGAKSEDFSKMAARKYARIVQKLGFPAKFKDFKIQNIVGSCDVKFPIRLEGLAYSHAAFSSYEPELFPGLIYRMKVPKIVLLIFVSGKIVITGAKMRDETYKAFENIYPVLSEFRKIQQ
Strand | E-score
AATTCAT | 0.26
GGATTTA | 0.281
ACTAAAA | 0.253
AATAATT | 0.362
AACATAA | 0.25
GCATTAA | 0.299

Sample 3 — technique: protein-binding microarray; form: double-stranded DNA, one strand shown; matrix: in vitro; concentration: 2200 nM top; notes: 60-bp whole probe; added: salmon DNA 0.4 mg/ml; reference: random background probes; direction: higher = stronger binding; shared flanks, not repeated: GCCTAGCAC … GTCTTGATTCGCTTGACGCTGCTG
Target: Interferon regulatory factor 7, full length, phosphomimetic (IRF7, Homo sapiens, UniProt Q92985, residues 1-503, S471D/S472D/S475D/S476D/S477D/S483D/S484D/S487D)
UniProt Q92985, sequence (whole entry, unmodified, looked up): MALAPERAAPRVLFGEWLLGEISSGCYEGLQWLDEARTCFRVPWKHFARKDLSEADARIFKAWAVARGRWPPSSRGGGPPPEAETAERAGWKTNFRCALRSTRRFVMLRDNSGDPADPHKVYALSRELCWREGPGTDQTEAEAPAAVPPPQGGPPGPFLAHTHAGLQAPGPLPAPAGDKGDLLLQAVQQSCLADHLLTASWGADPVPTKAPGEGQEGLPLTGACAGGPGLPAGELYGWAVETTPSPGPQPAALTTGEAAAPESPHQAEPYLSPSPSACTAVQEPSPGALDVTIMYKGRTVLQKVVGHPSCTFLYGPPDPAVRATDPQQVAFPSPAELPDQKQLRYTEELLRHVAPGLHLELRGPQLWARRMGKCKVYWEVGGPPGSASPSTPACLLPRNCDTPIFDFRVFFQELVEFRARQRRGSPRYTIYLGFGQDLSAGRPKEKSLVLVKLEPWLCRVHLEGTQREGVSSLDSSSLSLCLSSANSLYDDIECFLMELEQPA
Strand | fitted relative affinity
TTAGGTCGCGGACTGGGTTAGTGCTAG | -0.63 z-score
GATGAATAAAGCGTTGCTGCGTGCTAG | -0.439 z-score
TCATCCTTTGCTTTCTCACTGTGCTAG | 2.85 z-score
GACGATATCGGGTTTCCAGACGTGCTA | 0.809 z-score
TTAGGTATCGGTATTGGTTAGTGCTAG | 0.746 z-score

Other studies, line by line
Molecule | target | test | test system | setting | scale | measurement | value
PhoQ, residues 284 288 289 292 302 303 QWQEDG | PhoP, residues 12 14 15 18 19 AWHSL (Escherichia coli, UniProt P23836) | Sort-seq, measured: YFP reporter | E. coli | PhoQ-PhoP variant library, added: 10 µM Mg2+ | reference: high Mg2+ state, higher = stronger signaling | fold induction | 3.47

Repeated from above (other studies, line by line):
Molecule | target | test | test system | setting | scale | measurement | value
PhoQ, residues 284 288 289 292 302 303 QWQEDG | PhoP, residues 12 14 15 18 19 AWHSL (Escherichia coli, UniProt P23836) | Sort-seq, measured: YFP reporter | E. coli | PhoQ-PhoP variant library, added: 10 µM Mg2+ | reference: high Mg2+ state, higher = stronger signaling | fold induction | 3.47
